Measurements collected from several papers.
Every numbered part comes from another study and shows a few of its results, in no order.

Block 1
Target: Max-binding protein MNT, bHLH-zipper, MAX partner unstated (MNT, Homo sapiens, UniProt Q99583, residues 220-300)
Method: protein-binding microarray
Form: double-stranded DNA, one strand shown
Sample: in vitro
Tested at: not given
Setting: k-mer, scored over probes, only values ≥0.25
Reading: higher = stronger binding
Construct (chain): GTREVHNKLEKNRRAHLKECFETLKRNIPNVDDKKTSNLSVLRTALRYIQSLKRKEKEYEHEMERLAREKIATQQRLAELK
| Strand | E-score |
| --- | --- |
| CATGACCC | 0.32 |
| AGCCATGC | 0.372 |
| CACGCCTG | 0.369 |
| CTCATGCC | 0.305 |
| ATAGCGTG | 0.353 |
| CACGCCAC | 0.368 |
| CAATGTGG | 0.302 |
| GCATGATA | 0.282 |
| GAACGCAC | 0.272 |
| ACACATGG | 0.468 |

Block 2
Substance: PhoQ, residues 284 288 289 292 302 303 AGCYAI
Method: Sort-seq
Refers to: YFP reporter
Sample: E. coli
Setting: PhoQ-PhoP variant library
Added: 10 µM Mg2+
Reference: high Mg2+ state
Reading: higher = stronger signaling
| target | fold induction |
| --- | --- |
| PhoP, residues 12 14 15 18 19 HHYTI (Escherichia coli, UniProt P23836) | 0.708 |
| PhoP, residues 12 14 15 18 19 AYFRS (Escherichia coli, UniProt P23836) | 7.79 |
| PhoP, residues 12 14 15 18 19 SFCSL (Escherichia coli, UniProt P23836) | 4.84 |

Block 3
Target: Interferon regulatory factor 7, full length, phosphomimetic (IRF7, Homo sapiens, UniProt Q92985, residues 1-503, S101K/S471D/S472D/S475D/S476D/S477D/S483D/S484D/S487D)
Method: protein-binding microarray
Form: double-stranded DNA, one strand shown
Sample: in vitro
Tested at: 250 nM
Setting: 60-bp whole probe
Added: salmon DNA 0.4 mg/ml
Reference: random background probes
Reading: higher = stronger binding
Shared flanks, not repeated: GCCTAGCAC … GTGCTAGGTCTTGATTCGCTTGACGCTGCTG
Target sequence (chain): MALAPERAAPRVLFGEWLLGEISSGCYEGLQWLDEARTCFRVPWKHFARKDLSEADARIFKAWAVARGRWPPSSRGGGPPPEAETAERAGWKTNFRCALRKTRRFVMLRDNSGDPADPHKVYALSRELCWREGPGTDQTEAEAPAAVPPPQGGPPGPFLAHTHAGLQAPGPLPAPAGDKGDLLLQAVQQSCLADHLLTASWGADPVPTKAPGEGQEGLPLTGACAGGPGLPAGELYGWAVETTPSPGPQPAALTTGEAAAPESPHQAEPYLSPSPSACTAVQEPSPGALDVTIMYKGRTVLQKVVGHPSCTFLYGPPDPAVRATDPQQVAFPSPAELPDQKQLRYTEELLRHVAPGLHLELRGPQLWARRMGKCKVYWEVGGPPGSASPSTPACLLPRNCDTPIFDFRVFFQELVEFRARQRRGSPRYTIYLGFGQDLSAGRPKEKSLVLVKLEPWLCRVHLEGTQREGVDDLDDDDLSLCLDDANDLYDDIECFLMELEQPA
| Strand | log fluorescence [z-score] |
| --- | --- |
| TTAGGTTTCGGTCTCTGTTA | 10.1 |
| GACGGACTGGGACTGGGGAC | -0.3 |
| GACGGTTTCCTTTTCCTGGC | 6.92 |
| TTGTTTTTCATTATTGTCTT | 1.9 |
| TTAGGTTTCGGTTCCGGTAA | 12.8 |
| AACGGTCTCGGACTGGGGAC | 0.121 |
| GGCGATCTCAGTATCGAGAC | -0.267 |

Block 4
Target: Prothrombin, mature alpha-thrombin (F2, Homo sapiens, UniProt P00734)
Method: aptamer microarray, sandwich
Form: DNA with 2'F-ANA
Sample: in vitro
Tested at: 200 nM
Setting: whole 15-mer aptamer, many near background
Added: Cy3 exosite-II aptamer, 400 nM
Reading: higher = stronger binding
Strand: GGTTGGTGTGGTTGG
| Modification | mean fluorescence intensity |
| --- | --- |
| 2'F-ANA at 1 2 5 6 8 9 12 13 14 | 47.4 a.u. |
| 2'F-ANA at 2 7 9 10 11 13 14 | 90.8 a.u. |
| 2'F-ANA at 1 4 10 11 14 | 46.3 a.u. |
| 2'F-ANA at 3 4 6 8 9 11 12 13 15 | 478 a.u. |
| 2'F-ANA at 1 2 3 4 6 10 15 | 75.3 a.u. |
| 2'F-ANA at 1 5 6 7 9 11 13 | 64.8 a.u. |
| 2'F-ANA at 1 4 6 7 9 13 15 | 67.3 a.u. |

For quick reference, copied from above (block 4):
| Modification | mean fluorescence intensity |
| --- | --- |
| 2'F-ANA at 1 4 10 11 14 | 46.3 a.u. |
| 2'F-ANA at 2 7 9 10 11 13 14 | 90.8 a.u. |
| 2'F-ANA at 1 4 6 7 9 13 15 | 67.3 a.u. |
